Experimental data pooled from the literature.
Every numbered part comes from another study and shows a few of its results, in no order.

Set 1 — method: protein-binding microarray; molecule type: double-stranded DNA, one strand shown; medium: in vitro; tested at: not given; reading: higher = stronger binding
Target: Transcriptional repressor CTCF (CTCF, Homo sapiens, UniProt P49711, residues 1-727, full length assumed)
Setting: k-mer, scored over probes, only values ≥0.25
Target sequence (chain): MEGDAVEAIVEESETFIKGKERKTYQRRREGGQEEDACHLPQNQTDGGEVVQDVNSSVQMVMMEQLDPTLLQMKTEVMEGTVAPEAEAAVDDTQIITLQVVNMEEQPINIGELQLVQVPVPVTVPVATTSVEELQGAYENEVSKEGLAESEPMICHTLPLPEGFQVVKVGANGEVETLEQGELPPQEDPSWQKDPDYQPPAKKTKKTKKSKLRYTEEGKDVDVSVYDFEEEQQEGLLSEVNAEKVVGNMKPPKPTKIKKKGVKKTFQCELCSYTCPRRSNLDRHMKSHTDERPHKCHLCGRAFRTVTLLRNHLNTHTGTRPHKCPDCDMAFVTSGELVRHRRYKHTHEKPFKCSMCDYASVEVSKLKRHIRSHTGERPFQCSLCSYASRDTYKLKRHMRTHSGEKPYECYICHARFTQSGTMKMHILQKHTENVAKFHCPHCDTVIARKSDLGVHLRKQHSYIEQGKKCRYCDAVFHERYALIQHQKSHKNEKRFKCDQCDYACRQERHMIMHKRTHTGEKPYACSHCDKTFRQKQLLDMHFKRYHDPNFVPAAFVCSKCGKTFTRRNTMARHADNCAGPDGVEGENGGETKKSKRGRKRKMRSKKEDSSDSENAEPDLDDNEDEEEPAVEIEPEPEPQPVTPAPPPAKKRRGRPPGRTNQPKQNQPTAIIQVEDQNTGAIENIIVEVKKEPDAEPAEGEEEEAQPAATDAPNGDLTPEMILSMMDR
With `AGCGCATA` the E-score was 0.31.
The E-score of `AACAATAT` is reported as 0.314.
With `AAATATAA` the E-score was 0.321.
`ATGAAAAT` has an E-score of 0.283.

Set 2 — method: RNA Bind-n-Seq; molecule type: RNA; medium: in vitro; tested at: 20 nM; setting: 6-mer, flanks averaged, single round; added: 150 mM LiCl; baseline: input library; reading: higher = stronger binding
Target: TAR DNA-binding protein 43, full length, His tag (TARDBP, Homo sapiens, UniProt Q13148, residues 1-414)
For `UGCAUU`, “6-mer enrichment (R)” read 0.956.
`CGUUGG`: “6-mer enrichment (R)” 1.01.
`CAUGGG` — result for “6-mer enrichment (R)”: 1.07.
`AGGCUC`: “6-mer enrichment (R)” 0.868.
`CAAGCG` — result for “6-mer enrichment (R)”: 0.891.
For `AGUGAG`, “6-mer enrichment (R)” read 1.24.

Set 3 — method: protein-binding microarray; molecule type: double-stranded DNA, one strand shown; medium: in vitro; tested at: 940 nM top; setting: 60-bp whole probe; added: salmon DNA 0.4 mg/ml; baseline: random background probes; reading: higher = stronger binding; all sequences stand within: GCCTAGCAC … GTCTTGATTCGCTTGACGCTGCTG
Target: Interferon regulatory factor 5, full length, phosphomimetic (IRF5, Homo sapiens, UniProt Q13568-2, residues 1-514, S451D/S453D/S456D/S462D)
For `CTGGAGAGACGGAGTCTCCAGTGCTAG`, “fitted relative affinity” read -0.651 z-score.
`TCATATTTAAGCTCCTATACTGTGCTA` — result for “fitted relative affinity”: 0.271 z-score.
Under “fitted relative affinity”, `GACGAACTGAGTTTCGATACGTGCTAG` is recorded as 8.22 z-score.
`TTAGATAACGGGTATCGATTAGTGCTA`: “fitted relative affinity” 2.9 z-score.
`GACAGTTTCGGGACTGGGGACGTGCTA` — result for “fitted relative affinity”: 7.69 z-score.

Mixed results
For `PhoQ, residues 284 288 289 292 302 303 GANMMA`, the fold induction was 5.41 (PhoP, residues 12 14 15 18 19 YHFSH (Escherichia coli, UniProt P23836); Sort-seq, refers to: YFP reporter; E. coli; PhoQ-PhoP variant library, added: 10 µM Mg2+; baseline: high Mg2+ state, higher = stronger signaling).

Repeated from above (set 3):
`TCATATTTAAGCTCCTATACTGTGCTA` — result for “fitted relative affinity”: 0.271 z-score.
Under “fitted relative affinity”, `GACGAACTGAGTTTCGATACGTGCTAG` is recorded as 8.22 z-score.
